Results collected from several papers.
Numbered parts are unrelated; each lists some results of a single study. Positions count from the first letter of the parent shown.

Block 1
Target: RING finger protein unkempt homolog, zinc fingers 1-6, GST-SBP tag (UNK, Homo sapiens, UniProt Q9C0B0, residues 30-357)
UniProt Q9C0B0, sequence (30-357, looked up): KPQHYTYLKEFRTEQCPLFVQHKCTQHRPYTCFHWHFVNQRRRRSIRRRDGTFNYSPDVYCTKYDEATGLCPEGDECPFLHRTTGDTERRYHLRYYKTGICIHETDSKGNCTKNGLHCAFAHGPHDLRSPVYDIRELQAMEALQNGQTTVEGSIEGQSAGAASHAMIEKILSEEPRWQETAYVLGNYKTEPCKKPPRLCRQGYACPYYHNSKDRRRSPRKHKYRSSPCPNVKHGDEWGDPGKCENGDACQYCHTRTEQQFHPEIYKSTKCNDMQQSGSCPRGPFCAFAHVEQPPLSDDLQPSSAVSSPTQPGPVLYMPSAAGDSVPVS
Technique: RNA Bind-n-Seq
Molecule type: RNA
Sample: in vitro
Concentration: not given
Setting: RNA with constant flanks, ends assumed
Relative to: input RNA pool
Reading: higher = stronger binding
Shared flanks, not repeated: GGGAGUUCUACAGUCCGACGAUC … CAACAGAGGAUUGAGCAUCA
Oligonucleotide	bound/input enrichment [ratio]
GAGGCCCUGAAGAUCUUCCAGAAAAUAAAGGAUGAAAAGAGCCCAGAGUGGUCCAAAUUUUCCGGAUUGAUCAAAAAAUUUGUCACUGAUUCCAAUGCAGUGGUUCAAUUGAAAGGAUUA	0.114
AAGGAUUGUAAAUCCUAUAGUGUGGGUGUAGCAUAUAAAACUUUAGGAAAAUUUGAUCAGUCCGGAAAGACAAAUACUAGUUGGUGCGUUCACGUCAACAGCUGGUUACAGAACACAUUU	66.7
AAUCAGGCAAAGAAAGGUAGUGCAAGUUGUGGGACCAGUUUUCGAGGAACAGUUGGACGGACCCGAGAUUACACUGUUUUACAUCCAUCUUGCUUGUCAGUGUGUAAUGUUACCAUCCAG	0.132
ACUGAAGAAGAUGAUGAUGGGGAAUUAGCACUGUGGUCCCCUGAAGUCAAGAUUGUUGAACCCGUAAAAGAUUGUAAAGGUUUGGGAUUCAGCAUUUUGGAUUACCAGGACCCUUUAGAU	0.208
GAAGAGGUCCUCGAUCAUGGUGUUAGAAUUGACUGGAUAGUAACAGGUGGUCUGGUGGACCGCGGGGAGCAUGGCUCAGCACCAGAGCAGAGGCCCAGCCAGCCCUCUGCAGCCCAAACG	0.271
AUGGAUUUCUGUAGCCAUACCAAAGCCAGGGUGUUUUCAUUCAUGCGGAUACUAGUAUUUACCGAUGUCUGACUACCUAACUUAAUUUUUGUUUUUGAACUUCUAAUUGGGGCCAGUGUA	0.624
CAAAAAAGCUAUGAGGAAGAGCUCCUCCCCUUCCUUGAGUAACUGCAACUCCGAUCUUGCCCGCAAAAUAUUUGGAAUUCCACUUGAUGAGCUGCAGCAGGGAGGACAUCCAGACAAUGA	0.186
CAAACAUGGCCUCAUUGGAAAGGACCAGCCAGGUCUGGUGUGGAGGUCCUAUUUAAUGAAUCCGAAAUUCCCGUGGAAGAAUACUCCUUUGGUAGAUCAAAGAUAUUCAUCCGAAACCCA	0.12

Block 2
Target: RNA binding protein fox-1 homolog 2, RRM domain, GST-SBP tag (RBFOX2, Homo sapiens, UniProt O43251-10, residues 100-194)
Technique: RNA Bind-n-Seq
Molecule type: RNA
Sample: in vitro
Concentration: 365 nM
Setting: natural RNA segment, single round, ends assumed
Relative to: no-protein control
Reading: higher = stronger binding
Shared flanks, not repeated: GGGAGUUCUACAGUCCGACGAUC … UGGAAUUCUCGGGUGCCAA
Residues (chain): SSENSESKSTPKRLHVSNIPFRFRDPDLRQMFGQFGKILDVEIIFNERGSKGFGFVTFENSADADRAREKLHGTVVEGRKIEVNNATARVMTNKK
Oligonucleotide	RBNS enrichment (R)
UUAUAGAUCCUAAGUUAUUUACGUAACUCAAACUGAAUGGCUCUCUGAGAUGGAUGACUGGCGUGAACAUGUCUCUGAAGUUGUACUUGAGAAGACAAGAAGAAUAAUGU	0.371
CCAUGGGCUGCUGCUUCCUCUUGCCUUAAAAGUACACUCUCCAGGUGUGUCAGGGACUCUGUUUACUUGAAGACUGUGUGCAGUUGCCAGUUCGUCUCCCUGCUGUCUUU	0.379
UCUUCCCCAAACUAGCUCAUUAAAGAUGAAAUAGACCAGCUCUCUUCAGUGAAGAGGACAAAUAGUUUAUUUAAAGCAUUUGUUCCAAUAAAAUAACUAGAGGGAAACUU	0.444
UCCAACCAAUCAGUGCUGUCAACGGGCUGCCAUAGCUCCUUCGAUGGCAAAUAGGAUGUGUGCCCAAAGAAUUAAAGCGAUGAGUGGCUGGUGAAGCGCUCUCUGUCCUG	0.487
CACUUGGUUUGGGGGUUCAGGCUCCAGGAUCAAUUUAGAGGGAUCCUUGAACCCAGCCCCGUGAACAAUCUAUCAUAGGACUUUCAGGUAUUUUUACUUUUAUUUUUUGA	0.364
GCCUGGGUGACAGAGCGAGACUUUGUCCCAAAACAAAAUAGGUGAGGGGAUAGCGAAUGCACUCAGGGUCAGCAGUGGAGUUUAAAAAUUGUCUCUUUUCAACUUAUUUA	1.07
CAGAGGUGGCACAGGACAGUAAAGGAGAUGCUGUGCUGGCCUUCAGCCUGGACAGGGUCUCUGCUGACUGCCAGGGGCGGGGGCUCUGCAUAGCCAGGAUGACGGCUUUC	1.38
GUUUGUCUCCUGUAAAUAGCGGCUCCUAUGCCAUCCUCCCUGCUUUAUUAGUUAAUUUAAAUGAACACUCUUAUGUUCCAGUCUUAUAAAUAAAGCCUAUAGUGCACUUC	0.911
CUUUCUAAAAACCAUUUAAAGCUAACUGGGUCUUAGCAUCCUCCUGUGUAUGGAAGAGACAGGUGACCGCUCCAGGUUGGGUGCUCACAGAACCCUUUUCCUGACUCUCA	0.569
CCCCUCCAGCUUCAGCCUCCAGCUUUAACUUCUGUCUGCUCCUAAUGGGGGCCCAAAGCUCAGGGCUGGGGAGCCUGGGGUCCCCACUUGAAUCUCCAGCAGGAGGGUCC	0.49
GCUUUCGCUGCUUUAGAGCACCACAGACCUGACUGCUGCCGAGUCGGUCCCUGCAGCUAAUGCUCGAAGACCUUCUGGGCUCCUCGUGGCACUAGGCCCUUCACCUUGAC	0.232
CCCAGGCAGCAAGCAAGCUGUGAACAGCUGGCCUGAGCUGUCGCUGUGGCUUGUGGCUCAUGCGCCAUUCCUGGUUGUCUGUUGAAUCUUUCUGGCUGCUGGAAUUGGAG	2.21

Block 3
Target: CCNE1, cyclin fold, Cln2 fusion (human)
Technique: yeast growth competition, sequencing
Sample: yeast
Setting: strong parent motif
Relative to: not given
Reading: higher = stronger binding
Parent: SCAPER docking peptide (human); SNARRSLNFGGST
Change	normalised enrichment score
F9V	0.102
N2R	0.806
R5Q	0.448
A3E	0.498
S1P	0.774
G10N	0.204
L7C	0.524
A3H	0.712
N2S	1.21
R5E	0.193
L7R	0.0313
S12I	1.3
N8W	1.19
N8T	0.873
R5V	0.666
S12N	2
N2C	0.403
A3P	0.193
N8Q	0.662
S1G	0.946
R4E	-0.413
G10Q	0.467
G11Y	0.689
R4T	0.61

Block 4
Target: ABI1, truncated, D143A, DHFR fusion (Arabidopsis thaliana)
Technique: DHFR PCA, deep sequencing
Sample: yeast
Setting: methotrexate growth selection, single substitutions
Together with: (+)-ABA 0 µM
Relative to: wild-type fitted maximum
Reading: higher = stronger binding
Parent: PYL1, truncated, DHFR fusion (Arabidopsis thaliana); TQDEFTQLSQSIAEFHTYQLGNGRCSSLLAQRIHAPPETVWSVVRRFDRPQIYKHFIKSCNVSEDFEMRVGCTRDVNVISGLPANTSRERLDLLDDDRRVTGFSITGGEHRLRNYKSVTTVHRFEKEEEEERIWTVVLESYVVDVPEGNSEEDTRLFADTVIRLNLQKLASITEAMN; partner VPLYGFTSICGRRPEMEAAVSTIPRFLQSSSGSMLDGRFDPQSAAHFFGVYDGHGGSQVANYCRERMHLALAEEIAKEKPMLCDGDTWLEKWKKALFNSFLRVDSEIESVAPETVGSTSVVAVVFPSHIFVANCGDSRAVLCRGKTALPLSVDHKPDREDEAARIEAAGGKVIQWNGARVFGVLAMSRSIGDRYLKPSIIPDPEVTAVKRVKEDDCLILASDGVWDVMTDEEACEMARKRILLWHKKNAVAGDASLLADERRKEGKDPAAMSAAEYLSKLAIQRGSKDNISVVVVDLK
Change	relative binding score
Y18F	1.54%
C60Q	1.07%
I105Q	-0.515%
I52N	3.52%
E4H	12.4%
E152C	2.41%
S42G	22.4%
T119Y	-7.3%
R24G	4.76%
N149C	61.2%
S150Q	9.44%
C72T	6.38%
V43H	-6.57%
T160Q	-3.27%
R155C	2.92%
Y141L	-0.684%
F124W	29.2%
